# Results pooled from the literature.
# Numbered parts are unrelated; each lists some results of a single study. Values joined by “and” are separate records of one study, mostly repeats; a detail may differ.

# Series 1
# Target: Histone acetyltransferase KAT6A, winged helix 2, GST fusion (KAT6A, Homo sapiens, UniProt Q92794, residues 85-181)
# Technique: protein binding microarray
# Molecule type: double-stranded DNA, one strand shown
# Sample: in vitro
# Concentration: not given
# Setting: 8-mer, flanks averaged, mean of 2 arrays, mostly near background
# Baseline: not given
# Direction: higher = stronger binding
# Construct (chain): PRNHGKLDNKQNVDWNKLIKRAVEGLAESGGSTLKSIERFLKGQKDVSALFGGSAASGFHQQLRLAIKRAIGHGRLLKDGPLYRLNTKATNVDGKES
Sequence,E-score
CAATCACC,-0.147
CCGAGTTA,-0.065
CGGCTTTA,-0.0224
AGAGGCAA,0.00954
CACGCGCG,0.225
GAGTTCGC,0.179
CCCCCCAA,-0.0022
CGGAGTGA,0.165

# Series 2
# Target: Centromere-binding protein 1, full length, N-terminal tag (CBF1, Saccharomyces cerevisiae, UniProt P17106, residues 1-351)
# UniProt P17106, sequence (whole entry, looked up): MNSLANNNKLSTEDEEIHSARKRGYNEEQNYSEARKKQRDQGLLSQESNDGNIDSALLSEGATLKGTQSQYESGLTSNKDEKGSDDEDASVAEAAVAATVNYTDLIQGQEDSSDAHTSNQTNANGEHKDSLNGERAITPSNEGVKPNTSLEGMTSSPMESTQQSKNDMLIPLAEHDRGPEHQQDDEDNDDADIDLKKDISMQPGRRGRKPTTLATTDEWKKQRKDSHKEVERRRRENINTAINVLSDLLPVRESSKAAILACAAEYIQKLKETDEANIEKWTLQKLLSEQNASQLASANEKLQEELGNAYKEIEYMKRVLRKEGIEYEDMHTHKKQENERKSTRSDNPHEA
# Technique: protein-binding microarray
# Molecule type: double-stranded DNA, one strand shown
# Sample: in vitro
# Concentration: 0.8 µM
# Setting: whole 60-bp probe, no competitor
# Direction: higher = stronger binding
Sequence,fluorescence intensity [a.u.]
CTAAGGAATGCGATGGAGGTGATGCTAGTGTGGTTCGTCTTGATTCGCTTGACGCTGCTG,530
GAAACTCTCTTTTTCCACATGGTGCGTTCACGCTAGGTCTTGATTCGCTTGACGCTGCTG,505
TGTACGAAGCTATTGACCGTACTTATAGTAGTTAGGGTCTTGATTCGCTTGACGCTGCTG,508
GAATTACTTCTAGACCACGCATTTAACAATAATTAGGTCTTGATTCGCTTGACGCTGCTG,563
TGTACGAAGCTATAGAATCTGATTATAGTAGTTAGGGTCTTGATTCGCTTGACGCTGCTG,507
GAAATCTTCCGATGGCGCGTGCGTCTATTGTAGTAGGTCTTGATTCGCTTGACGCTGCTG,605
CTATTGTTTATTTACAAGCTGATGTAGAATTACTTCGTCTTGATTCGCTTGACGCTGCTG,584
CTAATAAACAGCGCTGACGTGCTTGGACTTTGTTTCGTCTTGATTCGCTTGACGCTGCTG,524

# Other studies, line by line
SMILES,tested on,assay,test system,conditions,scale,measurement,value
CC(=O)OCC[N+](C)(C)C,A-375,,,"100 µM, 60 h",,viability,107%
CC(=O)N[C@@H](Cc1c[nH]c2ccccc12)C(=O)N[C@@H](CCC(=O)C=[N+]=[N-])C(=O)OC(C)C,,"UPLC-MS/MS, refers to: 4-vinylphenol sulfate","C57BL/6 CES1-/- mice, EL4 tumour","subcutaneous, 0.3 mg/kg/day DON equivalent, 5 days",higher = more metabolite,metabolite peak area,50200 a.u. and 195000 a.u. and 182000 a.u. and 97100 a.u. and 60600 a.u. and 43600 a.u.
